Assay results collected from several papers.
Each numbered part is a random draw from the data of one study; scales do not carry over between parts.

Study 1
Target: Interferon regulatory factor 5, full length, phosphomimetic (IRF5, Homo sapiens, UniProt Q13568-2, residues 1-514, S451D/S453D/S456D/S462D)
Method: protein-binding microarray
Form: double-stranded DNA, one strand shown
Matrix: in vitro
Concentration: 940 nM top
Setting: 60-bp whole probe
With: salmon DNA 0.4 mg/ml
Reference: random background probes
Direction: higher = stronger binding
Constant ends, left off below: GCCTAGCAC … GTCTTGATTCGCTTGACGCTGCTG
Strand | fitted relative affinity
ACTGCATTCCCTTTCTCAACGTGCTAG | 1.43 z-score
GACTGTCTCCTACTGCTGACGTGCTAG | 0.386 z-score
GATGGTATCCTTCTCCTGACGTGCTAG | 0.614 z-score
TTAGGTATCGGGTTTCGGTTTGTGCTA | 8.12 z-score
GAGGAGATGAGAAACGATGAGTGCTAG | 0.106 z-score
TCATTTTTAATGAATGAAACTGTGCTA | 0.238 z-score
CCCTGTTTCTACTGTCTGTTTGTGCTA | 1.87 z-score
TTAGGTTCCCTACTGCTTTAGTGCTAG | 0.112 z-score
TTAGCACTGAGTCTCGATTAGTGCTAG | 2.44 z-score
CACTTTGGATAACCAAAAACGTGCTAG | -0.188 z-score
GACGGTATGGGTATCGGGACGTGCTAG | 0.912 z-score
TCATGTTTGGCCCTGAAACTGTGCTAG | -0.104 z-score
TTAGATTTCAGACTGGTTTAGTGCTAG | 0.157 z-score
TTATGTTTCGGTATCGGTTAGTGCTAG | 9.58 z-score
TTAGGTTTACTTCTCCTTTAGTGCTAG | 0.508 z-score
GTAGATATCAGTATCGATTAGTGCTAG | 4.68 z-score

Study 2
Target: RING finger protein unkempt homolog, zinc fingers 1-6, GST-SBP tag (UNK, Homo sapiens, UniProt Q9C0B0, residues 30-357)
Method: RNA Bind-n-Seq
Form: RNA
Matrix: in vitro
Concentration: not given
Setting: RNA with constant flanks, human-mouse chimeric sites, ends assumed
Reference: input RNA pool
Direction: higher = stronger binding
Residues (chain): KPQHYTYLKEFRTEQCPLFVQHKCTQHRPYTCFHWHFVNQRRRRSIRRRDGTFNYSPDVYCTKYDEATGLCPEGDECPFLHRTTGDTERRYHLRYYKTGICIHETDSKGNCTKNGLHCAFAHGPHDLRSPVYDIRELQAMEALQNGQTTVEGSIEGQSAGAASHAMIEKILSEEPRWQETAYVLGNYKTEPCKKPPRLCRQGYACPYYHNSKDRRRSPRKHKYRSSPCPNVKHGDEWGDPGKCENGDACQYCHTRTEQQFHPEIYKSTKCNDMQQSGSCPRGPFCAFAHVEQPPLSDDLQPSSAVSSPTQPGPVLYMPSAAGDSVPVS
Strand | bound/input enrichment
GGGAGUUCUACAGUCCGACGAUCGGCUGCUACUAUUCUCCCUGGAGUGGCUGGAGUUCCCGCCGGAGCGCGGCCAGACUAAUUAUAGAAAAUGCCAAGUAGGAAGUUUGUUGAGGGUGAAGUGGUCAGAGGCCGAUGGCCUGGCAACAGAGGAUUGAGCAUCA | 4.34 ratio
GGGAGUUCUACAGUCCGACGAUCAUCCAGUACUCGAAUCACAAAGAACUAAAGACAGAUAAUACAUUAAACCAACGUGCUCAAGUAGUUCUUCAAGCUGUGACAGCGGUCCAGACAGCAAAUACUCCUCUUAGUGGCACCACACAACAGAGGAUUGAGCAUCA | 0.37 ratio
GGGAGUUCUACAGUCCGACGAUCUCUUAACUUAUUCAUUUAACUUAUUUUUAUAGCUAGAUAAAUAUUGUUAGUCUUAGACAAUAGCUCACAUCUUUACAGAAGCAUGCCCUCCCUGUCCAUUUGUCUUACAAUAACACUCAGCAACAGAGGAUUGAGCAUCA | 6.73 ratio
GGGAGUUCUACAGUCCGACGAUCACCAUUUUCGCGGUUCAGGCUUUGUGUUGUAUUUACUUACGGUAUUAAAUUAUUAUUCUGCUUAGCUUAUAAUAAGGAUAAUUGCAUGAUUUAAGUAUACUGAAUGUUACUCUGAAACUUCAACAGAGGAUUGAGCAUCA | 0.266 ratio
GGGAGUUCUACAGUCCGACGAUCGUUGCCAGCUUCCGGUUCCGUUGGGCUCGGUUCUCUCCUGAGCUACGUGUCUCUACGCUCUCAAUCCGCCAUCCAACAAACAUGGAUGAUCAGGUAAAGUUUGUGGAGCCCAGCCGGCAGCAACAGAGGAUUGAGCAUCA | 0.0801 ratio
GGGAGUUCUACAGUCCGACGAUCUUACCCGAGAACGAGGAUGAGCUGGAGAGCACCAACAGGCGCUACACCAAGAGAGACUGUAGCACUUUCCUCAGAACUAGUGAGACGGGCAUCGUGGACCAGGUCAUGGUCACUCUCAACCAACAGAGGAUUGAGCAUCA | 0.225 ratio
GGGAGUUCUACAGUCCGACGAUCUUAAUCCCCUUUACUGCUCCCCCACUUCUCAUGGUAAUAACAAAGUCUUAUAUCCCCGUCCUAGCUUUCACUCAGAUGGCUUAUGGAGCCAGUUUCCUAUCUUUCUUGGGAGGGAUCAGACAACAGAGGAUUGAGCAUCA | 0.297 ratio
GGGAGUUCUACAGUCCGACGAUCUCGGAUGAGGUGCUGGGUCACUUUUCAUAUCCAGAUCCUUCACAGUGGACAGAUGAAGAACUGGGAAUCCCUCCUGAUGACGAGGACUGAAGGUGUAAACUCUCUGGACGAGUAGGAGCACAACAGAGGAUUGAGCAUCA | 0.688 ratio
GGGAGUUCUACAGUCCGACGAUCUGUAGUUUCUUGAUUUAUCAUUUUUCUCUUUUCUUUCUUUCCUUUAGGAAAAGCCUAAAGAUUAGGUUGUAAGAAAAGAAAAUAGAAUGUUUCGAAGACCUGUGUUACAGGUAUUUCGUCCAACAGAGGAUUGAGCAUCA | 0.475 ratio
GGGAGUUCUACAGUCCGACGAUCUCAAGGGGGCACUGCAGGGCCAUGCCUUUCCUUGACAUACAGAAAAAGCUGGGCAUCAGCCUGGACCGGCACUUUAUGUUCCUAAGCGCAGAACAGCCCUAUAAGAACGCCGCUCGGUGCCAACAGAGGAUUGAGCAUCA | 0.102 ratio
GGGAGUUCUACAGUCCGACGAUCGGAAGUACAAUGAUGGAAAUAGAUGGCGACAAAGGCAAGCAGGGCGGGCCCACCUACUACAUAGACACUAAUGCUCUCCGCGUGCCCAGGGAGAACAUGGAGGCCAUCUCACCACUCAAGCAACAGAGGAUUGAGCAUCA | 0.709 ratio

Study 3
Target: RNA binding protein fox-1 homolog 2, RRM domain, GST-SBP tag (RBFOX2, Homo sapiens, UniProt O43251-10, residues 100-194)
Method: RNA Bind-n-Seq
Form: RNA
Matrix: in vitro
Concentration: 365 nM
Setting: natural RNA segment, single round, ends assumed
Reference: no-protein control
Direction: higher = stronger binding
Construct (chain): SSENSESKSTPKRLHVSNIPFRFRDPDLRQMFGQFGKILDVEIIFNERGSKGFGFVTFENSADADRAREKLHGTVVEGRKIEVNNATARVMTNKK
Strand | RBNS enrichment (R)
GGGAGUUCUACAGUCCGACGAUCAGGUCAUACUGGGCAACAGUGUUCUUCUUUAGAACACUGUAGGCUCUUCUCACUGGAAGAGCAGAGGGAAACCUGGCCGUCGUGUAUUCUCCUUAUGUUUAAAUGCACAGUGGAAUUCUCGGGUGCCAA | 0.279
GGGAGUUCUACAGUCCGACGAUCAAACACAUGCUUUUGUAUCUUGUCAUAGUUAUCCACAAAUGGCAAAACUGGACUUGAUUCUACUGGUAUGCAAAACAGGCAUGCUAGUAAGCAGUCAGUCGUGGCUCAGAUGGAAUUCUCGGGUGCCAA | 0.204
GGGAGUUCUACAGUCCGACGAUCGAUUCUCAAAAGUGUGAGUCCUGGACCAGCAGCAACAGCAUCACCGGGAACUUGUUAGAAAUGCACAUUCUCAGGCCACUCCCUAGACCUACUGAAUCAGAAACCCUGGGUGGAAUUCUCGGGUGCCAA | 0.66
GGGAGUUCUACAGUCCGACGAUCUACCUGUGUGGCUAUCCUCAUCUGCCUGCCCUCUCAUCCCUCGGCUAGAAUGAUGUACUCUACUUUCCCAAUAAGGUAGAAAUUUGGAAUCCAACGGAAUAUAAUCAGUUUGGAAUUCUCGGGUGCCAA | 0.503
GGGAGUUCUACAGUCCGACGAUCGACAAAACAUCUAUACGUACAGUACCACUAAUAAAUGUUGAGCUCCUGCUGUCCUGUUGGAAAGUUCUGGAAGUUAAGGACGGAGAGUGCUGUUUGUAAUGCAGUCUUCCUGGAAUUCUCGGGUGCCAA | 0.43
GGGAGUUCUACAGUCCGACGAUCAACUUGAGAUUUUUAAAGUUAACUAUUAACACAGUUUUAACAUAAGUUAUCCCACUGGGUUUAAAAGCAUCUUGAAUGUAUAACCCUUCUGUAACCCAGGCUGGUCUUUGUGGAAUUCUCGGGUGCCAA | 0.47
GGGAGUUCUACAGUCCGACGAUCGCGGAAGUCAUCAAGCACUUGGGCGUUCUGCUCCGAUGCAGCUGUGGCCAGCGGUCAGGCUGCUGAGCCGGGUUUCUGGAUAUGCUGCUGCUGUUGAAUCCACUGACUUGUGGAAUUCUCGGGUGCCAA | 0.272
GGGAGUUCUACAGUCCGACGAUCAAGGCCUUUGACCCAUGUCAUCUGAGCGUCUCCUCCAGUAGCUCUGAAAGCUGUGGACACCAAUGGCCAGGAUUCCUUCUCCCCUGGUUUUUGAGGAUCCCUGGGUCUUCUGGAAUUCUCGGGUGCCAA | 0.202
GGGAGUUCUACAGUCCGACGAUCCCCCUGGGGCAGGGCAGGGGGCAGGGAGAGACAAGGCUGCUGCUAUUAGAGCCCAUCCUGGAGCCCCACCUCUGAACCACCUCCUACCAGCUGUCCCUCAGGCUGGGGGAUGGAAUUCUCGGGUGCCAA | 0.611
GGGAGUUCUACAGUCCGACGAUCCCUGUACCAUAUUAUGGAAAACUGUUAACUGCUUAAUUGGGUAAUUUUCAAAGAAAGUAAUGUUGUUAAAUGGGGCGAAAUAAGAAGUUAAAUUUGAAAGUGAAUGUGUUUGGAAUUCUCGGGUGCCAA | 0.842
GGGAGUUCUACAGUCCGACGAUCCUGAUCCGGAAGCACGCAGCAUGUUCCCUGCUGAGCGGAGGCAGCCCACCUGUCCUGCCUCCCAGGAGCCCUUGGCCACCUCGCGCCAGCCCAAAGGCGCAGCUCUGAGUUGGAAUUCUCGGGUGCCAA | 10.3
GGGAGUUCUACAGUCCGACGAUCCCCUGGCCCUGCCCCGCCAUCUGCUUUCACCAAGCUGUCUCUCCACCGUGGCUUCCCUUCUCCCUCCAGGCCAAAGUGCUGCUGAUUCCCACUCCCUUGGUUUUCGCCUGUGGAAUUCUCGGGUGCCAA | 0.756

Study 4
Target: Sal-like protein 4, full length isoform A (SALL4, Homo sapiens, UniProt Q9UJQ4, residues 1-1053)
Sequence of UniProt Q9UJQ4 (whole entry, looked up): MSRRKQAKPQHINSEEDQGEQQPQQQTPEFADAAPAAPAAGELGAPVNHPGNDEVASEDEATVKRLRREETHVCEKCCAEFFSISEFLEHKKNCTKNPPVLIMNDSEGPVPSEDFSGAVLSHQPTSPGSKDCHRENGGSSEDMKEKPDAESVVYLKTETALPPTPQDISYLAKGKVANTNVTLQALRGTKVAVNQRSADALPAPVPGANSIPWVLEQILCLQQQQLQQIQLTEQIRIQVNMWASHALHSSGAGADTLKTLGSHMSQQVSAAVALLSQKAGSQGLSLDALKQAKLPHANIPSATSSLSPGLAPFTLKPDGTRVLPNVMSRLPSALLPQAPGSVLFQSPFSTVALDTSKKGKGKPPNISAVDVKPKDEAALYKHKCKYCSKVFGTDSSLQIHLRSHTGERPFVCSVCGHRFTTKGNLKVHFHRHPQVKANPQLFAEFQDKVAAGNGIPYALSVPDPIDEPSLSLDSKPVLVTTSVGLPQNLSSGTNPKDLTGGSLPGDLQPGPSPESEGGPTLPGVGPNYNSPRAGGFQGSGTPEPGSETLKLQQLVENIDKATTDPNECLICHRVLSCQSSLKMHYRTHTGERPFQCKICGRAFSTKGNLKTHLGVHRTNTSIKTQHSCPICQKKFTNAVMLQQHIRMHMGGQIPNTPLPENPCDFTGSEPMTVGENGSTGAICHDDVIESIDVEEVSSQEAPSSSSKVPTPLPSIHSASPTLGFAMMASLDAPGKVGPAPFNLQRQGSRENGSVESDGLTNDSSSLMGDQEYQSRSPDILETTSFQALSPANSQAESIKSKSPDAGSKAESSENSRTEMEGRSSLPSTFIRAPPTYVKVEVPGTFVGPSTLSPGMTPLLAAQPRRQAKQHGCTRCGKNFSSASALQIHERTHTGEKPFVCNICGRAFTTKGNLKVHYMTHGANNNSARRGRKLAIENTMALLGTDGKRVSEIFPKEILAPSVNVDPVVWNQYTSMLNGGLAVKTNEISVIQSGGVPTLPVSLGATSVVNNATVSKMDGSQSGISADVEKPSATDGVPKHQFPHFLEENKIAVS
Method: universal PBM
Form: double-stranded DNA, one strand shown
Matrix: in vitro
Concentration: 600 nM
Setting: 8-mer, flanks averaged, mean of replicates
Direction: higher = stronger binding
Strand | E-score
AACATCAA | 0.243
AACTTAGT | 0.0855
TGACTTAA | 0.187
GCGTTACA | 0.163
AGCTCCAC | -0.237
CAAGCGAC | -0.127
CCTGCCTC | -0.342
GCCCGGGA | -0.413
CTGCGATC | -0.084
ACCTCAAG | -0.117
GAGGCTTA | -0.0371
GTAAACAC | 0.0637
CGACAAGC | -0.227
CGATGTCC | -0.231
AGTCGAAG | 0.0222
CCTATCCA | -0.111
AGGTTCAA | 0.0693
AAGGGCGA | -0.204
CGCGCGCG | -0.33
GGCAACGA | -0.123
CCACGAGA | -0.266
GGCATGCA | -0.0796
ATGAGGAA | 0.218
ACGCACTA | -0.105
AAACCGGG | -0.243

Repeated from above (study 4):
Strand | E-score
GTAAACAC | 0.0637
GGCATGCA | -0.0796
CGCGCGCG | -0.33
CAAGCGAC | -0.127
AGCTCCAC | -0.237
GCCCGGGA | -0.413
